Measured values gathered from unrelated publications.
Lines come from different studies, so protocols differ. ± gives the spread as reported.

The IC50 of `CC(C)=CCc1c(O)cc(/C=C/c2ccc(O)cc2)cc1O` is reported as less than 0.025 µg/mL (Sp1 (human); reporter gene, inhibitor; SW1353; control transcription factor).
The IC50 of `NC[C@@H]1O[C@H](O[C@H]2[C@@H](O)[C@H](O[C@@H]3[C@@H](O)[C@H](N)C[C@H](N)[C@H]3O[C@H]3O[C@H](CO)[C@@H](O)[C@H](O)[C@H]3N)O[C@@H]2CO)[C@H](N)[C@@H](O)[C@@H]1O` is reported as 10.4 ± 2.86 µg/mL (Mycobacterium smegmatis ribosome G1491C; translation, cell-free luciferase synthesis).
For `Oc1cccc(CCc2ccccc2)c1`, the IC50 was greater than 25 µg/mL (Sp1 (human); reporter gene, inhibitor; SW1353; control transcription factor).
`NC[C@H]1O[C@H](O[C@H]2[C@H](O)[C@@H](O[C@H]3O[C@H](CO)[C@@H](O)[C@H](N)[C@H]3O)[C@H](N)C[C@@H]2N)[C@H](N)C[C@@H]1O` has an IC50 of 16 µM (Escherichia coli ribosome wild type; EF-G-dependent translocation, inhibitor, toeprinting).
With `myricitrin` the IC50 was 20 µM (class IIb HDAC (bovine); enzyme activity, inhibitor; bovine heart tissue lysate).
With `NC[C@H]1O[C@H](O[C@H]2[C@H](O)[C@@H](O[C@H]3O[C@H](CSc4ccccc4F)[C@@H](O)[C@H](N)[C@H]3O)[C@H](N)C[C@@H]2N)[C@H](N)C[C@@H]1O` the IC50 was 210 µM (Escherichia coli ribosome, wild type; EF-G-dependent translocation, inhibitor, toeprinting; second inflection, biphasic fit).
`CC(C)/C=C/c1c(O)cc(/C=C/c2ccc(O)c(O)c2)cc1O` has an IC50 of greater than 25 µg/mL (Sp1 (human); reporter gene, inhibitor; SW1353; control transcription factor).
`Cc1cc2c(C(C)C)c(O)c(O)c(C=O)c2c(O)c1-c1c(C)cc2c(C(C)C)c(O)c(O)c(C=O)c2c1O` gave an IC50 of 11 µM (class I HDAC; enzyme activity; bovine heart lysate).
With `O=C(Nc1cccnn1)N1CCN([C@@H]2CCOc3cc(C(F)(F)F)ccc32)CC1` the IC50 was 11 µM (Na+ channel site 2; binding).
`C[C@@H]1CCCC(=O)N(C)/C=C/CC[C@H](C)C(=O)O[C@@H](C(C)(C)C)C1` gave an IC50 of greater than 10 µM (voltage-gated sodium channels; veratridine-stimulated Na+ influx, antagonist, SBFI fluorescence; primary mouse cerebrocortical neurons).
For `CN[C@@](C)(C[18F])C(=O)O`, the tracer uptake was 3.2 %ID/g (MDA-MB-468 tumour model; host not given, lung; 15 min, tumour-bearing).
`NC[C@@H]1O[C@H](O[C@H]2[C@@H](O)[C@H](O[C@@H]3[C@@H](O)[C@H](N)C[C@H](N)[C@H]3O[C@H]3O[C@H](CO)C[C@H](O)[C@H]3N)O[C@@H]2CO)[C@H](N)[C@@H](O)[C@@H]1O` has an IC50 of 28.6 ± 0.9 µg/mL (Mycobacterium smegmatis ribosome G1491C; translation, cell-free luciferase synthesis).
With `COC(=O)Nc1nc2ccc(C(=O)c3cccs3)cc2[nH]1` the IC50 was 7.7 ± 0.2 µM (tubulin, bovine brain; tubulin assembly, inhibitor; 37 °C, tubulin 5 µM, 2% DMSO, added: paclitaxel 5 µM).
The IC50 of `CC(C)/C=C/c1c(O)cc(/C=C/c2ccccc2)cc1O` is reported as greater than 25 µg/mL (Sp1 (human); reporter gene, inhibitor; SW1353; control transcription factor).
`CN[C@@H]1[C@@H](O)[C@@H](O[C@@H]2[C@@H](O)[C@H](O[C@H]3O[C@H]([C@@H](C)O)[C@@H](O)[C@H](O)[C@H]3N)[C@@H](N)C[C@H]2N)OC[C@]1(C)O` gave an IC50 of 0.19 ± 0.03 µM (Leishmania tarentolae ribosome; cell-free translation, inhibitor, measured: EGFP reporter; Leishmania tarentolae S30 extract).
For `O=C(O)C(=O)CBr`, the IC50 was 56 ± 11 µM (HDAC from MCF7 cells; inhibitor).
The IC50 of `NCC1OC(OC2C(CO)OC(OC3C(O)C(N)CC(N)C3OC3OC(CO)C(OCCCc4ccccc4)C(O)C3N)C2O)C(N)C(O)C1O` (stereo not shown) is reported as 201 ± 25.8 µg/mL (Mycobacterium smegmatis ribosome G1491C; translation, cell-free luciferase synthesis).
`CC(C)/C=C/c1c(O)cc(/C=C/c2ccc(O)cc2)cc1O` has an IC50 of greater than 25 µg/mL (Sp1 (human); reporter gene, inhibitor; SW1353; control transcription factor).
`CCCCCCCCCCSC[C@H]1O[C@H](O[C@@H]2[C@@H](O)[C@H](O[C@H]3O[C@H](CN)[C@@H](O)C[C@H]3N)[C@@H](N)C[C@H]2N)[C@H](O)[C@@H](N)[C@@H]1O` gave an IC50 of greater than 1000 µM (Escherichia coli ribosome wild type; EF-G-dependent translocation, inhibitor, toeprinting).
The IC50 of `CNC(=O)CCC[C@@H](C)C[C@@H](OC(=O)[C@@H](C)CCCCO)C(C)(C)C` is reported as greater than 10 µM (voltage-gated sodium channels; veratridine-stimulated Na+ influx, antagonist, SBFI fluorescence; primary mouse cerebrocortical neurons).
`CCCCCCCCCCCCCCCCCCSC[C@H]1O[C@H](O[C@@H]2[C@@H](O)[C@H](O[C@H]3O[C@H](CN)[C@@H](O)C[C@H]3N)[C@@H](N)C[C@H]2N)[C@H](O)[C@@H](N)[C@@H]1O` gave an IC50 of greater than 1000 µM (Escherichia coli ribosome wild type; EF-G-dependent translocation, inhibitor, toeprinting).
`cadmium acetate` has an IC50 of 1.1 µM (androgen receptor (human); PSA promoter-luciferase transcription, inhibitor; LAPC4).
For `CC(C)(O)C(O)Cc1c(O)cc(/C=C/c2ccccc2)cc1O` (stereo not shown), the IC50 was greater than 25 µg/mL (Sp1 (human); reporter gene, inhibitor; SW1353; control transcription factor).
`C=CC(=O)OCCO` has an IC50 of 9510 µM (lysine-containing peptide; peptide depletion, mass spectrometry; 24 h, pH 10.2, room temperature, added: lysine peptide 0.5 mM).
`CC(C)/C=C/c1c(O)cc(/C=C/C2=CC(=O)OC2CC(=O)O)cc1O` (stereo not shown) gave an IC50 of greater than 25 µg/mL (Sp1 (human); reporter gene, inhibitor; SW1353; control transcription factor).
With `CNC(=O)CCC[C@@H](C)C[C@@H](OC(=O)[C@H](C)CCCC(=O)O)C(C)(C)C` the IC50 was greater than 10 µM (voltage-gated sodium channels; veratridine-stimulated Na+ influx, antagonist, SBFI fluorescence; primary mouse cerebrocortical neurons).
`CC(C)(O)C(O)Cc1c(O)cc(/C=C/c2ccc(O)cc2)cc1O` (stereo not shown) gave an IC50 of greater than 25 µg/mL (Sp1 (human); reporter gene, inhibitor; SW1353; control transcription factor).
For `NC[C@@H]1O[C@H](O[C@H]2[C@@H](O)[C@H](O[C@@H]3[C@@H](O)[C@H](N)C[C@H](N)[C@H]3O[C@H]3O[C@@H]4CO[C@@H](CCc5ccccc5)O[C@H]4[C@H](O)[C@H]3N)O[C@@H]2CO)[C@H](N)[C@@H](O)[C@@H]1O`, the IC50 was 124.1 ± 0.1 µg/mL (Mycobacterium smegmatis ribosome G1491C; translation, cell-free luciferase synthesis).

A few entries again:
`CC(C)/C=C/c1c(O)cc(/C=C/C2=CC(=O)OC2CC(=O)O)cc1O` (stereo not shown) gave an IC50 of greater than 25 µg/mL (Sp1 (human); reporter gene, inhibitor; SW1353; control transcription factor).
`CCCCCCCCCCCCCCCCCCSC[C@H]1O[C@H](O[C@@H]2[C@@H](O)[C@H](O[C@H]3O[C@H](CN)[C@@H](O)C[C@H]3N)[C@@H](N)C[C@H]2N)[C@H](O)[C@@H](N)[C@@H]1O` gave an IC50 of greater than 1000 µM (Escherichia coli ribosome wild type; EF-G-dependent translocation, inhibitor, toeprinting).
With `O=C(Nc1cccnn1)N1CCN([C@@H]2CCOc3cc(C(F)(F)F)ccc32)CC1` the IC50 was 11 µM (Na+ channel site 2; binding).
The IC50 of `NCC1OC(OC2C(CO)OC(OC3C(O)C(N)CC(N)C3OC3OC(CO)C(OCCCc4ccccc4)C(O)C3N)C2O)C(N)C(O)C1O` (stereo not shown) is reported as 201 ± 25.8 µg/mL (Mycobacterium smegmatis ribosome G1491C; translation, cell-free luciferase synthesis).
